Measurements of several laboratories.
Lines come from different studies, so protocols differ. Numbers after ± are the reported error.

For O=C(Nc1nc2ccccc2[nH]1)C1CCC1, “highest non-cytotoxic concentration” read 60 µM (BV-2; 24 h).
The TD50 of CCCCCCCCCCCCCNCC(=O)N(CC(=O)N(CCCCN)CC(=O)N(CCN)CC(=O)N(CC(N)=O)Cc1ccc(Cl)cc1)Cc1ccc(Cl)cc1 is reported as 72 ± 24 µg/mL (HepG2; cytotoxicity, MTT; 72 h).
Under “minimal haemolytic concentration”, `Polymyxin B` is recorded as 2000 µg/mL (human red blood cells; 4 h, pH 7.4).
Cc1ccc(S(=O)(=O)[O-])cc1.Nc1c([I+]c2ccccc2)c(=O)oc2ccccc12 — result for “maximal non-toxic concentration”: 1 µg/mL (BHK-21; MTT).
CCCCCCCCCCCCCNCC(=O)N(CC(=O)N(CCCCN)CC(=O)N(CCN)CC(=O)N(CC(N)=O)C1CCCC1)C1CCCC1 has a TD50 of over 200 µg/mL (HepG2; cytotoxicity, MTT; 72 h).
CC(C)(C)[C@H](NC(=O)C(F)(F)F)C(=O)N1C[C@@H]2CCC[C@@H]2[C@H]1C(=O)N[C@H](C#N)C[C@@H]1CCNC1=O: cytotoxicity “not toxic” (Vero E6 cells; concentration not given, 24 (unit not given)).
For C[C@@H](NC(=O)[C@@]1(Cc2ccccc2)CCN1C(=O)OCc1ccccc1)C(N)=O, “minimum cytotoxic concentration” read over 100 µM (HEL; microscopic cell morphology).
O=c1c(-c2ccc(O)cc2)coc2c([C@@H]3O[C@H](CO)[C@@H](O)[C@H](O)[C@H]3O)c(O)ccc12 gave an efflux ratio of about 1 (rat nasal epithelial cells; Transwell bidirectional transport; 25, 50, 100 µg/mL, 180 min).
For Nc1ccn(C[C@@H](CO)OCP(=O)(O)O)c(=O)n1, “minimum cytotoxic concentration” read over 300 µM (HEL; cell morphology).
O=C(Nc1nc2ccccc2[nH]1)c1cccc(C(F)(F)F)c1: “highest non-cytotoxic concentration” 200 µM (BV-2; 24 h).
With NC(=O)N1c2ccccc2C=Cc2ccccc21 the Papp(B-A) was 20.8 ± 2.3 ×10⁻⁶ cm/s (parental MDCK II cells; bidirectional permeability; 1 µM, 2 h, with: cyclosporin A 10 µM).
O=C(Nc1nc2ccccc2[nH]1)c1cc(C(F)(F)F)ccc1C(F)(F)F — result for “highest non-cytotoxic concentration”: 60 µM (BV-2; 24 h).
C[C@H](NC(=O)[C@]1(Cc2ccccc2)CCN1S(=O)(=O)c1ccc2ccccc2c1)C(N)=O — result for “minimum cytotoxic concentration”: over 100 µM (HEL; microscopic cell morphology).
COc1cc(C(=O)O)ccc1Cn1ccc2ccc(NC(=O)c3ccc(C(C)(C)C)cc3)cc21: mRNA level “decreased” (HepG2; qPCR, item: CYP7A1; 10 µM, 12 h, FXR target gene).
CC/C(=C(\c1ccccc1)c1ccc(OCCN(C)C)cc1)c1ccccc1 gave an EC50 of over 316000 nM (SK-BR-3; necrosis; 24 h).
CC(=O)Oc1ccccc1C(=O)Nc1ncc([N+](=O)[O-])s1 — result for viability: “decreased” (BV-2; 80, 160 µM, 24 h).
C[C@H](NC(=O)[C@]1(Cc2ccccc2)CCN1C(=O)OCc1ccccc1)C(=O)N(C)C — result for “minimum cytotoxic concentration”: over 100 µM (HEL; microscopic cell morphology).
Cc1cc(C)cc(C(=O)Nc2cc([N+](=O)[O-])ccc2Cl)c1 has a viability of 47% (BHK-21; cell growth or viability, MTT; 100 µM, serum-free).
The CC50 of CC(=O)Oc1ccccc1C(=O)Nc1ncc([N+](=O)[O-])s1 is reported as 51200 nM (J2 human intestinal enteroids; 24 h).
For C[C@H](NC(=O)[C@]1(Cc2ccccc2)CCN1C(=O)OCc1ccccc1)C(=O)NC1CCCCC1, “minimum cytotoxic concentration” read over 100 µM (HEL; microscopic cell morphology).
For C=C(C[C@H](N)C(=O)O)C(=O)NCc1ccc([N+](=O)[O-])cc1, the EC50 was 339 nM (SK-BR-3; necrosis; 24 h).
CCCCCCCCCCCCCNCC(=O)N(CC(=O)N(CCCCN)CC(=O)N(CCN)CC(=O)N(CC(N)=O)CC1CCCCC1)CC1CCCCC1 has a TD50 of 62 ± 3 µg/mL (HepG2; cytotoxicity, MTT; 72 h).
For C[C@H](NC(=O)[C@]1(Cc2ccccc2)CCN1C(=O)OCc1ccccc1Cl)C(N)=O, “minimum cytotoxic concentration” read over 100 µM (HEL; microscopic cell morphology).
With Cc1ccc(C(=O)Nc2cccc(C(=O)O)c2)c(C)c1 the viability was over 90% (BHK-21; cell growth or viability, MTT; 100 µM, serum-free).
The viability of CONC(=N)c1ccc(-c2ccc(-c3ccc(C(=N)NOC)cn3)o2)cc1 is reported as 44% (KLE; 50 µM, 72 h, 10% FBS, with: α-naphthoflavone (CYP1B1 inhibitor) 10 µM; relative to: vehicle).
C[C@H](NC(=O)[C@]1(Cc2ccccc2)CCN1C(=O)OCC1c2ccccc2-c2ccccc21)C(N)=O — result for “minimum cytotoxic concentration”: 20 µM (HEL; microscopic cell morphology).
Under “minimum cytotoxic concentration”, COc1ccc(-c2cn(-c3nc(O)c4ncn([C@H]5C[C@H](O)[C@@H](CO)O5)c4n3)nn2)cc1 is recorded as over 240 µM (HEL; cell morphology).
C=C(C[C@H](N)C(=O)O)C(=O)NCc1ccccc1 has an EC50 of 97.7 nM (SK-BR-3; necrosis; 24 h).
Under “minimum cytotoxic concentration”, CC(C)CNC(=O)[C@H](C)NC(=O)[C@]1(Cc2ccccc2)CCN1C(=O)OCc1ccccc1 is recorded as over 100 µM (HEL; microscopic cell morphology).
With CCCCCCCCCCCCCNCC(=O)N(CC(=O)N(CCCCN)CC(=O)N(CCN)CC(=O)N(CC(N)=O)Cc1ccc(F)cc1)Cc1ccc(F)cc1 the TD50 was 150 ± 7 µg/mL (HepG2; cytotoxicity, MTT; 72 h).
With C=C(C[C@H](N)C(=O)O)C(=O)N1CCCCC1 the EC50 was 72.4 nM (SK-BR-3; necrosis; 24 h).
The CC50 of NC(=O)c1ncn([C@@H]2O[C@H](CO)[C@@H](O)[C@H]2O)n1 is reported as over 640000 nM (MARC145; cell growth or viability, MTT; 48 h).
CCCCOc1c2cc(C(=O)Nc3cc(C(=O)O)cc(C(=O)O)c3)cc1Cc1cc(C(=O)Nc3cc(C(=O)O)cc(C(=O)O)c3)cc(c1OCCCC)Cc1cc(C(=O)Nc3cc(C(=O)O)cc(C(=O)O)c3)cc(c1OCCCC)Cc1cc(C(=O)Nc3cc(C(=O)O)cc(C(=O)O)c3)cc(c1OCCCC)C2 gave an IC50 of over 50000 nM (MT2; cell growth or viability).
CCCCCCCCCCCCCNCC(=O)N(CC(=O)N(CCCCN)CC(=O)N(CCN)CC(=O)N(CC(N)=O)[C@@H](C)c1ccccc1)[C@@H](C)c1ccccc1 gave a TD50 of 167 ± 104 µg/mL (HepG2; cytotoxicity, MTT; 72 h).
For CC(C)C[C@H](NC(=O)[C@@]1(Cc2ccccc2)CCN1C(=O)OCc1ccccc1)C(N)=O, “minimum cytotoxic concentration” read over 100 µM (HEL; microscopic cell morphology).
For CCCCCCCCCCCCCNCC(=O)N(CC(=O)N(CCCCN)CC(=O)N(CCCCN)CC(=O)N(CC(N)=O)C1CCCCC1)C1CCCCC1, the TD50 was 165 ± 97 µg/mL (HepG2; cytotoxicity, MTT; 72 h).
For COc1ccc(C(=O)Nc2cc(Cl)c(O)c(Cl)c2)cc1OC, the viability was 35% (BHK-21; cell growth or viability, MTT; 100 µM, serum-free).
`polymyxin B` — result for “minimum haemolytic concentration”: over 2000 µg/mL (human red blood cells; 4 h, pH 7.4, 25 °C).

A few entries again:
With NC(=O)N1c2ccccc2C=Cc2ccccc21 the Papp(B-A) was 20.8 ± 2.3 ×10⁻⁶ cm/s (parental MDCK II cells; bidirectional permeability; 1 µM, 2 h, with: cyclosporin A 10 µM).
The TD50 of CCCCCCCCCCCCCNCC(=O)N(CC(=O)N(CCCCN)CC(=O)N(CCN)CC(=O)N(CC(N)=O)Cc1ccc(Cl)cc1)Cc1ccc(Cl)cc1 is reported as 72 ± 24 µg/mL (HepG2; cytotoxicity, MTT; 72 h).
For Nc1ccn(C[C@@H](CO)OCP(=O)(O)O)c(=O)n1, “minimum cytotoxic concentration” read over 300 µM (HEL; cell morphology).
CCCCOc1c2cc(C(=O)Nc3cc(C(=O)O)cc(C(=O)O)c3)cc1Cc1cc(C(=O)Nc3cc(C(=O)O)cc(C(=O)O)c3)cc(c1OCCCC)Cc1cc(C(=O)Nc3cc(C(=O)O)cc(C(=O)O)c3)cc(c1OCCCC)Cc1cc(C(=O)Nc3cc(C(=O)O)cc(C(=O)O)c3)cc(c1OCCCC)C2 gave an IC50 of over 50000 nM (MT2; cell growth or viability).
C=C(C[C@H](N)C(=O)O)C(=O)NCc1ccccc1 has an EC50 of 97.7 nM (SK-BR-3; necrosis; 24 h).
